Earlier results, collected from citations in different studies.
Lines come from different studies, so protocols differ. ± marks the error that the study gave.
SLC6A2: Sodium-dependent noradrenaline transporter (SLC6A2, Homo sapiens, UniProt P23975)
UniProt P23975, sequence (whole entry, looked up): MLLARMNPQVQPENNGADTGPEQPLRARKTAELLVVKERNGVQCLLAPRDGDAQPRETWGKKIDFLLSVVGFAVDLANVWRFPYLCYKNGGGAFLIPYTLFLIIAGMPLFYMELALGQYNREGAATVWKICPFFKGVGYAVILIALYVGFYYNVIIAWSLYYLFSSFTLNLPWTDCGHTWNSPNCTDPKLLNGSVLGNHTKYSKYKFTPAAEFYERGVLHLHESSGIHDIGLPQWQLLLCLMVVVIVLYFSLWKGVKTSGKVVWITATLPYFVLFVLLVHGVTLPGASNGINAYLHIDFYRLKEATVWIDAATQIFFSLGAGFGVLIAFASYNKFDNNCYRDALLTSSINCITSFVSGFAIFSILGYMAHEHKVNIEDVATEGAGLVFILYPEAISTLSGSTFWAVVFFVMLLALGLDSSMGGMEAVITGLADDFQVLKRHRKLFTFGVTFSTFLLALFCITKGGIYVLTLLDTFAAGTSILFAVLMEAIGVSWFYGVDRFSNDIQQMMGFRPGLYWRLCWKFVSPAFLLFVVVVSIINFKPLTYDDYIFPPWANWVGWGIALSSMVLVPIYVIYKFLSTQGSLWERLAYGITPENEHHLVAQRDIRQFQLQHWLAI

Molecule	target or system	assay	system	setting	how to read	quantity	value
C[C@]1(c2nc3c(C(N)=O)cccc3[nH]2)CCCN1			human germline BRCA-mutated cancer	dose not given		response rate	60%
CC(=O)O[C@@]12CO[C@@H]1C[C@H](O)[C@@]1(C)C(=O)[C@H](O)C3=C(C)[C@@H](OC(=O)[C@H](O)[C@@H](NC(=O)OC(C)(C)C)c4ccccc4)C[C@@](O)([C@@H](OC(=O)c4ccccc4)[C@H]21)C3(C)C			human unselected stage IV NSCLC	dose not given, second-line after platinum chemotherapy		objective response rate	14%
C[C@]12CC[C@@H](O)C[C@@H]1CC[C@@H]1[C@@H]2CC[C@@]2(C)[C@H]1CC[C@@]21CO1		loss of swimming reflex	tadpoles			EC50	2760 ± 10 nM
CCCCCCCCCCCCCCCCOP(=O)([O-])OCC[N+](C)(C)C			human visceral leishmaniasis India	concentration not given		cure rate at 6 months	~90%
CN1C/C(=C\c2ccc(Cl)cc2Cl)C/C(=C/c2ccc(Cl)cc2Cl)C1		dopamine release, inhibitor	striatal slices	together with: methamphetamine		IC50	380 nM
Nc1nc2c(ncn2COCCO)c(=O)[nH]1		three-week survival	mouse, intranasal HSV-2 infection	oral		ED50	16 mg/kg
tirzepatide			type 2 diabetes patients	5 mg weekly, 40 weeks		HbA1c change from baseline	-2.01%
C#C[C@]1(CO)O[C@@H](n2cnc3c(N)nc(F)nc32)C[C@@H]1O			human, cART-naive HIV-1 infected	10 mg single dose, up to day 10		viral load reduction	1.78 log10 copies/mL
C=CCN(CC=C)CCc1c[nH]c2ccc(F)cc12	SLC6A2					Ki	1820 nM
Cc1nc(N(C)C(=O)Cc2ccc(-c3ccccn3)cc2)sc1S(N)(=O)=O		three-week survival	mouse, intranasal HSV-1 infection	oral		ED50	0.5 mg/kg
CC1=C[C@H](O)[C@@H](O)[C@]2(C)[C@H]3[C@@H](O)[C@H](O)[C@@]4(C)OC[C@@]35[C@@H](C[C@@H]12)OC(=O)[C@H](O)[C@]54O			streptozotocin diabetic rats	dose not given	relative to: untreated diabetic rats	blood glucose lowering	73.6 ± 13.6%
COc1cc2c(Oc3ccc4[nH]c(C)cc4c3F)ccnc2cc1OCC1(N)CC1.Cl.Cl			human, advanced NSCLC, pretreated	dose not given		median overall survival	9.6 months
tirzepatide			human adults with obesity	dose not given, week 0 to 88		body weight reduction	25.3%
COCCOCCOCCOc1ccc(C2=N[C@@](C)(C(=O)O)CS2)c(O)c1			bile duct-cannulated rats	subcutaneous, 300 µmol/kg		iron clearing efficiency	8.7 ± 2.6%
L-Tyr-D-Arg		analgesia, tail-pinch test	mouse	intracisternal		ED50	6.2 nmol
CN1[C@@H](CC(=O)c2ccccc2)CCC[C@H]1C[C@H](O)c1ccccc1		dopamine release, inhibitor	striatal slices	together with: methamphetamine		IC50	420 nM
C=CCN(CC=C)CCc1c[nH]c2ccccc12	SLC6A2	binding		together with: [3H]nisoxetine		Ki	1120 nM
C=CC=O		dopamine vesicular uptake	striatal synaptic vesicles	together with: [3H]dopamine		IC50	213000 nM

A few entries again:
Molecule	target or system	assay	system	setting	how to read	quantity	value
C[C@]12CC[C@@H](O)C[C@@H]1CC[C@@H]1[C@@H]2CC[C@@]2(C)[C@H]1CC[C@@]21CO1		loss of swimming reflex	tadpoles			EC50	2760 ± 10 nM
